Results of several laboratories.
Each line is one published result; not all experiments were run side by side. ± gives the spread as reported.
Cell line: A549

Substance | assay | test system | setting | scale | endpoint | value
Nc1nccc(-n2cc(C(=O)NC3CCNCC3)c3ccc(C#CC4(O)CCCCC4)cc32)n1 | wound-healing | – | 5 µM | – | cell migration | 39%
O=C(Cn1cc(COc2ccccc2-c2nc(Cc3ccccc3)no2)nn1)NNC(=S)Nc1ccccc1 | qPCR, measured: TP53 | – | concentration not given, 24 h | relative to: untreated | mRNA level | 5.4 ± 0.01 fold
Nc1nccc(-n2cc(C(=O)N3CCC[C@@H](O)C3)c3ccc(C#CC4(O)CCCCC4)cc32)n1 | wound-healing | – | 5 µM | – | cell migration | 54%
Cc1cc(-c2ccccc2)c2ccc3c(-c4ccccc4)cc(C)nc3c2n1 | – | – | 3 µM | relative to: intracellular over initial extracellular | cellular accumulation | 400 to 600 fold
CO/C1=C\C(C)=C\[C@@H](C)[C@@H](O)[C@@H](C)C/C(C)=C/C=C/[C@H](OC)[C@@H]([C@@H](C)[C@@H](O)[C@H](C)[C@@]2(O)C[C@@H](O)[C@H](C)[C@@H](C(C)C)O2)OC1=O | fluorescein-WGA ratio imaging | – | concentration not given, 37 °C, medium pH 7.4 | – | cell surface pH | 8.9 ± 0.12
COc1cnc(NS(=O)(=O)c2ccc(NC(=O)/C=C\c3ccc(OC(C)=O)c(OC(C)=O)c3)cc2)nc1 | cell viability, MTT | – | 24 h pretreatment, added: H2O2 800 µM for 4 h | – | protective concentration | ≤ 100 µM
Nc1nccc(-n2cc(C(=O)N3CCC[C@@H](N)C3)c3ccc(C#CC4(O)CCCCC4)cc32)n1 | wound-healing | – | 5 µM | – | cell migration | 57%
VCTGSC | – | peptide | 2 µg coated per well, 30 to 60 min | relative to: thrombospondin-coated wells | adherent cells | 8%
COc1cccc2c1C(=O)c1c(O)c3c(c(O)c1C2=O)C[C@@](O)(C(=O)CO)C[C@@H]3O[C@H]1C[C@H](N)[C@H](O)[C@H](C)O1 | qPCR, measured: EGFR | – | IC50, 24 h | relative to: untreated cancer cells | mRNA level | 0.16 ± 0.02 fold
COCCNc1nc2ccc(C#CC3(O)CCCCC3)cc2n1-c1ccnc(N)n1 | wound-healing | – | 5 µM | – | cell migration | 62%
NNC(=O)Cn1cc(COc2ccccc2-c2nc(-c3ccccc3)no2)nn1 | qPCR, measured: PI3K | – | IC50, 24 h | relative to: untreated cancer cells | mRNA level | 0.3 ± 0.004 fold
NS(=O)(=O)c1ccc(NC(=O)/C=C\c2ccc(O)c(O)c2)cc1 | – | – | 6.25 µM, 24 h pretreatment, added: 800 µM H2O2 for 4 h | relative to: H2O2 alone | catalase activity | increased
C#C[C@@]1(O)[C@@H](CO)O[C@@H](n2cc(Br)c3c(N)ncnc32)[C@@H]1O | – | – | 48 h | – | GI50 | 19 ± 97 nM
O=C(/C=C\c1ccc(O)c(O)c1)Nc1ccc(S(=O)(=O)Nc2ncccn2)cc1 | cell viability, MTT | – | 24 h pretreatment, added: H2O2 800 µM for 4 h | – | protective concentration | ≤ 200 µM
NC(=O)Cn1cc(COc2ccccc2-c2nc(Cc3ccccc3)no2)nn1 | qPCR, measured: mTOR | – | IC50, 24 h | relative to: untreated cancer cells | mRNA level | 0.25 ± 0.0008 fold
Nc1nccc(-n2cc(C(=O)N3CC[C@@H](N)C3)c3ccc(C#CC4(O)CCCCC4)cc32)n1 | wound-healing | – | 5 µM | – | cell migration | 68%
CC(=O)Oc1ccc(/C=C\C(=O)Nc2ccc(S(N)(=O)=O)cc2)cc1OC(C)=O | cell viability, MTT | – | 24 h pretreatment, added: H2O2 800 µM for 4 h | – | protective concentration | ≤ 50 µM
CSVTCR | – | peptide | 2 µg coated per well, 30 to 60 min | relative to: thrombospondin-coated wells | adherent cells | 90%
NC(=O)Cn1cc(COc2ccccc2-c2nc(-c3ccccc3)no2)nn1 | qPCR, measured: TP53 | – | concentration not given, 24 h | relative to: untreated | mRNA level | 6.5 ± 0.05 fold
Nc1nccc(-n2cc(C(=O)N[C@@H]3CCCNC3)c3ccc(C#CC4(O)CCCCC4)cc32)n1 | wound-healing | – | 5 µM | – | cell migration | 52%
CSTSCG | – | peptide | 2 µg coated per well, 30 to 60 min | relative to: thrombospondin-coated wells | adherent cells | 23%

For quick reference, copied from above:
Substance | assay | test system | setting | scale | endpoint | value
COc1cccc2c1C(=O)c1c(O)c3c(c(O)c1C2=O)C[C@@](O)(C(=O)CO)C[C@@H]3O[C@H]1C[C@H](N)[C@H](O)[C@H](C)O1 | qPCR, measured: EGFR | – | IC50, 24 h | relative to: untreated cancer cells | mRNA level | 0.16 ± 0.02 fold
NC(=O)Cn1cc(COc2ccccc2-c2nc(-c3ccccc3)no2)nn1 | qPCR, measured: TP53 | – | concentration not given, 24 h | relative to: untreated | mRNA level | 6.5 ± 0.05 fold
CSTSCG | – | peptide | 2 µg coated per well, 30 to 60 min | relative to: thrombospondin-coated wells | adherent cells | 23%
